Measured values from different studies.
Every numbered part comes from another study and shows a few of its results, in no order. Substitutions count along the parent as printed.

Block 1 — technique: universal PBM; molecule type: double-stranded DNA, one strand shown; matrix: in vitro; concentration: not given; reading: higher = stronger binding
Target: Sal-like protein 4, full length isoform B (SALL4, Homo sapiens, UniProt Q9UJQ4-2, residues 1-616)
Setting: 8-mer, flanks averaged, mean of replicates
Oligonucleotide	E-score
CTTCCGAC	-0.0619
ATACCTCA	0.122
AATTAGGG	-0.0185
AACCTGGG	-0.36
ATGTGGTA	0.173
CCGAAAAA	0.162
AGCCAACT	-0.0713
ACTAAGGC	-0.117
ATAGCCGG	-0.107
AATGGTGC	-0.0473
TAACGAAA	0.321
GAAGTTCA	0.112

Block 2 — target: CCND3, cyclin fold, Cln2 fusion (human); technique: yeast growth competition, sequencing; matrix: yeast; setting: weak parent motif; reference: not given; reading: higher = stronger binding
Parent: PKMYT1 docking peptide (human); SFEPRNLLSLFED
Variant	normalised enrichment score
R5L	0.0702
R5K	-0.0688
E12I	0.426
E3F	0.116
S1F	0.129
S9W	0.116
S9K	0.00719
F2A	0.0627
L8A	0.149
R5I	0.169
E3H	0.128
L7D	0.146
D13N	0.136
F11W	0.161

Block 3 — technique: protein binding microarray; molecule type: double-stranded DNA, one strand shown; matrix: in vitro; concentration: not given; reference: not given; reading: higher = stronger binding
Target: Histone acetyltransferase KAT6A, winged helix 1, GST fusion (KAT6A, Homo sapiens, UniProt Q92794, residues 1-85)
Setting: 8-mer, flanks averaged, mean of 2 arrays, mostly near background
Residues (chain): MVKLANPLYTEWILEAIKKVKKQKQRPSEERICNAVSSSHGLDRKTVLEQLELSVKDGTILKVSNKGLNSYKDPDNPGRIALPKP
Oligonucleotide	E-score
CCGTACAG	0.223
AATGAAAT	-0.212
ACAAGCAA	-0.12
GCCCGCGC	0.461
CCAATCGA	-0.278
GCTTGGAC	-0.0979
ACGTGAGT	-0.201
CCATCTCC	-0.232
CCGGCTGC	0.167
AGGGTTTG	-0.119
CGCTGTGC	0.256
TCTAACCA	-0.239
CTTGTATC	-0.148
ACTTGTTG	-0.273
AATGGCTA	-0.199
TAATTGCA	-0.024
ATGGGTCA	-0.328
GTGGACCA	-0.136
GCCGCAAA	0.256
GCAGACCC	0.143
CGGTGGGA	0.0705
CATAAGCG	0.121

Block 4 — technique: RNA Bind-n-Seq; molecule type: RNA; matrix: in vitro; concentration: 365 nM; reference: no-protein control; reading: higher = stronger binding
Target: RNA binding protein fox-1 homolog 2, RRM domain, GST-SBP tag (RBFOX2, Homo sapiens, UniProt O43251-10, residues 100-194)
Setting: natural RNA segment, single round, ends assumed
Residues (chain): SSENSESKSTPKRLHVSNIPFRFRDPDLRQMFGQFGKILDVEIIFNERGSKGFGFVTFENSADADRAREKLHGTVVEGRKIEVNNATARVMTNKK
Oligonucleotide	RBNS enrichment (R)
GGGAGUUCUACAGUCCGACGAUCAAUAUGUAAUCAACUGCAUUGUAUCUAAAGCCUUAGAACUAGUCAGGUGCUCCCUCCACCCAAUACCAUUUCUUACCCUCUAAUCCUACCUGAUCUUUAACAAAGCAUUAUGGAAUUCUCGGGUGCCAA	0.417
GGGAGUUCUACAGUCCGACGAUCCCUGGCGUGAUUGACGAUCUGAGUUUUAUCUCUCACACCUACAAGGUGGAAGAGGAGAACUGGCUCCCCACAGUUGUCCCCUGACCCUCACCCCUAACCCCCAAUCACAAUGGAAUUCUCGGGUGCCAA	0.457
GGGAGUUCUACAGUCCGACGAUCCUCGGUGAAGCCUUUUCCCAGAGCAUAUGUCUCCGGCAGGCAGUGUGGGUUCUUGCCAAGCAUCAGAACCAGUCUCCAGGGCCUCCCGACGCCGAUCCAUAGUACUGUACUGGAAUUCUCGGGUGCCAA	0.31
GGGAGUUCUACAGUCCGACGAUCGUUGUUUUGGAGCCUGUUGACUUUGUAUCUCUGCCUGUGAUUUUCUUUUCUAAAUGAAACUCCAUGUAGCAACCAGGACGAAGUUGAGAAGGAAAACGCCAAAUGCUUUGUGGAAUUCUCGGGUGCCAA	0.611
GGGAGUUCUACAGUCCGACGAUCGGAAAGUGUUCCAGACGGAGACUCUGAGUUAAUAGAGGAGUAGAAGCUGGUGUUAAAGUUCCCACGACGCACAUGGCUUUGCCAGAAACUCUGUUUAAUGAUCGGCCUUUUGGAAUUCUCGGGUGCCAA	0.266
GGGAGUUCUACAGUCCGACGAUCCAAAACAAAUAGCCAACAAACAGGAAUUCAGGGUCGCUUUGCUUGCUCUCUGUGCUCUGUGGUGGCUUCCAUGCACUGCUGUGGCCAUGGAGACCCAGCUCCUUGCACGGUGGAAUUCUCGGGUGCCAA	1.17
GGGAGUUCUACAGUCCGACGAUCUCAGAUGGCUUUCCAGAUGACCAGGACGAGUGGGAUAUUUUGCCCCCAACUUGGCUCGGCAUGUGAAUUCUUAGCUCUGCAAGGUGUUUAUGCCUUUGCGGGUUUCUUGAUGGAAUUCUCGGGUGCCAA	1.8
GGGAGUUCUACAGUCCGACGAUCACUAUUAAACUGAUUAAGGCUGUUUAUUUUUACUCCUAGAAAUGGUCAUAUGAAGUAGAUGUGCAAUCAUGUAGACAGCAGGCCAAGGUGAUCAGUGGCUAAAGUUGAAAUGGAAUUCUCGGGUGCCAA	0.648
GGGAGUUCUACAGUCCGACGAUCAAAAAUUUGUUUUGUAUAAAGAGGUUAGCCCUGCGCACGUAGGACUGAAUUCAGUGAUAUCCCUAUACACUGCCAUUUAGUGGAUAGGUUAUUGUACUUCCAUUCAUACUUGGAAUUCUCGGGUGCCAA	0.289
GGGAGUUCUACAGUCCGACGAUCCUCUAUUUUGUUCUUAAAUAAGCAAGAAAAUUGCACGUUGUAUUCACUGACGACAACAAAAGCUUAGUUUCUAGCAUGAGAGGCUAAACAGCCCCACACAGCUCUGAUUCUGGAAUUCUCGGGUGCCAA	0.69

Block 5 — technique: RNA Bind-n-Seq; molecule type: RNA; matrix: in vitro; concentration: 200 nM; setting: whole 134-nt RNA, ends assumed; together with: 150 mM LiCl; reference: input library; reading: higher = stronger binding; each molecule: 7-deaza-guanosine replaces G
Target: Fragile X messenger ribonucleoprotein 1, C-terminal low-complexity region (Fmr1, Mus musculus, UniProt P35922)
Oligonucleotide	log2 enrichment
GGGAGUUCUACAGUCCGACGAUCAAGUCCUGUGCUACACAUCGUAUGUACCGAAUCGGCCCGGGGCCCGGGGCCCGGGGAAAGUAUUAUGUUACGCCGUUCGGAUCUGCACUUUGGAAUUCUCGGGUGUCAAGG	-1.86
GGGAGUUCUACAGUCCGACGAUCCACAGACAACACGCACCCACACAGACACAGAGGGAAGGGGUUGGGAUGGGGACAGGGUGCACAGCAGGUCGGGGUAGGACCCCAGCCCCUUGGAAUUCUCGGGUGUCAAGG	-0.534
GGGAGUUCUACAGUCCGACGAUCUCCUCAAGUCCUGUGCUACACAUCGUAUGUACCGAAUCGGUGGGGUGGGUGGAAAGUAUUAUGUUACGCCGUUCGGAUCUGCACUUCCAGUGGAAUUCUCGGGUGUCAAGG	0.422
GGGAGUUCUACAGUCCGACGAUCUCCUGUGCUACACAUCGUAUGUACCGAAUCAAACCCCCCCAAACCCCCCCAAAUUUAAAAAAGUAUUAUGUUACGCCGUUCGGAUCUGCAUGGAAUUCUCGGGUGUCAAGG	1.92
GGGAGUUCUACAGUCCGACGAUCCUCAAGUCCUGUGCUACACAUCGUAUGUACCGAAUCGGAGGUUUGGAAAAAGGAAAGUAUUAUGUUACGCCGUUCGGAUCUGCACUUCCAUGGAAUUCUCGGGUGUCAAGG	-0.768

Block 6 — technique: RNAcompete; molecule type: RNA; matrix: in vitro; concentration: 20 nM; setting: 7-mer, probes averaged, single round; reference: mean of 7-mers; reading: higher = stronger binding
Target: PABPC1L2, full length, GST fusion (mouse, UniProt A0ABA7IW68)
Target sequence (chain): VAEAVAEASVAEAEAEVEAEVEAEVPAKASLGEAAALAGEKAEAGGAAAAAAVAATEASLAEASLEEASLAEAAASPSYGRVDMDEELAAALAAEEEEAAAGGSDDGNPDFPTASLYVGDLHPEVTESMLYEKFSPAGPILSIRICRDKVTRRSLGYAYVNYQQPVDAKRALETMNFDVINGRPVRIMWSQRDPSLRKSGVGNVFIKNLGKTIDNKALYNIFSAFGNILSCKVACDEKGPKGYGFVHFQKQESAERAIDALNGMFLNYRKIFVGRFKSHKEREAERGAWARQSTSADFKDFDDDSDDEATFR
Oligonucleotide	7-mer Z-score
UUAAUCU	-0.17
CUGCAUC	-0.222
CCGCGAG	-0.371
CAGGGGA	0.251
AACGCUU	-0.00652
CUAUUGC	-0.342
UGAGGAU	-0.0663
CGUUUGG	-0.523
CCCUAGA	-0.0446
GUGUUCA	-0.344
UUGCGCU	-0.224
GAGCUGA	0.046
CCGCUAA	-0.0446
ACAUUAA	0.155
AUGUAGU	-0.215
GGUGGCG	0.0605
GUUAUAU	-0.291

Block 7 — technique: protein-binding microarray; molecule type: double-stranded DNA, one strand shown; matrix: in vitro; concentration: 2200 nM top; setting: 60-bp whole probe; together with: salmon DNA 0.4 mg/ml; reference: random background probes; reading: higher = stronger binding; shared flanks, not repeated: GCCTAGCAC … GTCTTGATTCGCTTGACGCTGCTG
Target: Interferon regulatory factor 7, full length, phosphomimetic (IRF7, Homo sapiens, UniProt Q92985, residues 1-503, S471D/S472D/S475D/S476D/S477D/S483D/S484D/S487D)
Target sequence (chain): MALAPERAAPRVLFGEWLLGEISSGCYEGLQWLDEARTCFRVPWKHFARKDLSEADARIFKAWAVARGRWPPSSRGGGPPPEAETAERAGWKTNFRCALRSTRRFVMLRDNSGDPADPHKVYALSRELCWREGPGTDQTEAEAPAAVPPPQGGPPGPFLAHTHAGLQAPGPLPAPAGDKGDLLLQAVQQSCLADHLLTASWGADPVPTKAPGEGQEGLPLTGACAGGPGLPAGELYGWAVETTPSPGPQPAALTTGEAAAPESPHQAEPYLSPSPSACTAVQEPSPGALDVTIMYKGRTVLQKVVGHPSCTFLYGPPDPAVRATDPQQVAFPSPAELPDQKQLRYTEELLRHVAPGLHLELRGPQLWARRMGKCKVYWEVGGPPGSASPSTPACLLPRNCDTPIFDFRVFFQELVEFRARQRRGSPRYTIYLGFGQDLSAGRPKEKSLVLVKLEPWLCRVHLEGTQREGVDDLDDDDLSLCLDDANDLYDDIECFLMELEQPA
Oligonucleotide	fitted relative affinity [z-score]
TTAGGATTGGACTATCGGTTAGTGCTA	-0.0278
TTAGGTATCGGACTGGCTTAGTGCTAG	0.0411
TTTCTAATGTTTTTTAAAGTGTGCTAG	1.44
GACGAACTAAGACTGGAGACGTGCTAG	-0.483
GACGGTTTCGACTTTCGGTACGTGCTA	9.16
TCAGTTGTCCAGGCTGGTACTGTGCTA	0.488
GACGGACTGGGTTTCCGGACGTGCTAG	-0.0297
GACGGACTGGGACTTGGGACGTGCTAG	-1.03
GACGTTATCAGTATCGAGACGTGCTAG	0.627
GACGATCTCAGACGGGAGACGTGCTAG	-0.199
TCACCAATCATTTTTGCACTGTGCTAG	1.21

Repeated from above (block 2):
Variant	normalised enrichment score
E12I	0.426
E3F	0.116
S1F	0.129
S9W	0.116
S9K	0.00719
F2A	0.0627
L8A	0.149
R5I	0.169
E3H	0.128
L7D	0.146
